# Measurements collected from several papers.
# Each line is one published result; not all experiments were run side by side. Numbers after ± are the reported error.
Compound,test,system,setting,how to read,measurement,result
C[C@H](NC(=O)COC(=O)[C@H](C)NC(=O)CO)C(=O)O,,water,"pH 4, 50 °C",,depolymerization rate constant,0.027 h⁻¹
Cc1cc(O)c(C=O)c2c1C(=O)Oc1c(CO)c(O)c3c(c1O2)C(O)OC3=O (stereo not drawn),,"streptozotocin-diabetic male albino rats, serum","dose not given, 9 weeks",baseline: diabetic control,LH level,increased
OC[C@H]1O[C@@H](Oc2ccc(O)cc2)[C@H](O)[C@@H](O)[C@@H]1O,,"zebrafish AB wild type, head melanin","60 µM, 45 h, from 6 hpf",,pigmentation inhibition,11.4 ± 3.45%
CCCCCCOC(=O)Cc1c(C)n(C(=O)c2ccc(Cl)cc2)c2ccc(OC)cc12,hot plate test,BALB/c mice,"50 mg/kg, 90 min",,latency of nociceptive response,15.1 ± 1.27 s
CC(=O)[O-].O.O.[O-]c1ccc(Br)cc1C=NCCN1CCOCC1.[Zn+2],nitric oxide scavenging,,240 µM,,inhibition,52.4%
O=C(O)C1OC(Oc2cccc(-c3nc(N4CCOCC4)c4oc5ncccc5c4n3)c2)C(O)C(O)C1O (stereo not drawn),glucuronide formation,dog liver microsomes,,,Vmax,432 ± 15 pmol/min/mg
CC(C)C[C@@H]1NC(=O)[C@H](C(C)C)NC(=O)[C@H](CC(N)=O)NC(=O)[C@H](CO)NC(=O)[C@H](CO)NC(=O)[C@H](CC(=O)O)NC(=O)[C@H](CC(=O)O)NC(=O)[C@H](Cc2ccccc2)NC(=O)[C@H](Cc2ccc(O)cc2)NC(=O)[C@@H](N)CSSC[C@@H](C(=O)N[C@@H](CCCCN)C(=O)N[C@@H](CCCCN)C(=O)N[C@@H](Cc2ccc(O)cc2)C(=O)N[C@@H](CCCNC(=N)N)C(=O)N[C@@H](CO)C(=O)O)NC1=O,,"CD-1 mouse, nephrotoxic serum nephritis, blood","dose not given, dosed from week 6",,blood urea nitrogen,decreased
CC1(C)C(=CC=CC=CC=CC2=[N+](CCCCCC(=O)NCCCC[C@@H]3NC(=O)[C@@H](Cc4ccccc4)NC(=O)[C@H](CC(=O)O)NC(=O)CNC(=O)[C@H](CCCNC(=N)N)NC3=O)c3ccc4ccccc4c3C2(C)C)N(CCCCS(=O)(=O)[O-])c2ccc3ccccc3c21,,"BALB/c nude mice, orthotopic U87MG-luc glioma","dose not given, 72 h, brain",,ex vivo tumour fluorescence,not detected
CC(=O)N[C@@H](CC(N)=O)C(=O)NCC(=O)N[C@@H](C)C(=O)N[C@@H](C)C(N)=O,1H NMR,sodium phosphate buffer 50 mM,"pH 7.4, 37 °C",,rate constant succinimide to β-Asp,0.714 h⁻¹
CCN(CC)C(=O)c1ccc(-c2cc(NCCCN3CCCCC3)c3ccccc3n2)cc1,,"diet-induced obese mice, liver","food admixture, 0.05% w/w in diet, 2 weeks, with: insulin ip 10 min",,insulin receptor phosphorylation,increased
O=C(Nc1ccc(C(F)(F)F)cc1Cl)c1cc(Cl)ccc1O,,"mice LuCaP sample A PDX, serum","oral, 150 mg/kg",,PSA level,decreased
CC(C)=CCCC(C)=CCc1cc(-c2coc3cc(OC4OC(C(=O)O)C(O)C(O)C4O)ccc3c2=O)ccc1O (stereo not drawn),"glucuronidation, substrate",dog liver microsomes,,,Vmax,3050 ± 284 pmol/min/mg
CC=C1C(OC2OC(CO)C(O)C(O)C2O)OC=C(C(=O)OC)C1CC(=O)OCC1OC(OCCc2ccc(O)cc2)C(O)C(O)C1O (stereo not drawn),refers to: acetic acid,"tumour-bearing mice, faeces","oral, 109.2 mg/kg daily, 10 days",baseline: untreated tumour group,faecal short-chain fatty acid increase,38.9%
Cc1cc2c(cc1C1(c3ncc(C(=O)O)cn3)CC1)C(C)(C)CCC2(C)C,"RNA sequencing, refers to: Abca1 mRNA","rat, brain","dose not given, 24 h, single dose",baseline: vehicle,log2 fold change,-1.04
Cc1ccc(C(C)C)cc1NC(=O)COC(=O)/C=C/c1ccc(O)cc1O,,Danio rerio embryos,"50 µM, 9 to 72 hpf",,pigmentation level,~57.3%
COc1ccc(C2CC(c3ccc(C)cc3)=Nc3ccccc3S2)cc1OC (stereo not drawn),,"Wistar rat, STZ-induced diabetes","oral, 10 mg/kg once daily, day 21",,blood glucose,144 ± 4.34 mg/dL
CN(C)c1ccc2c(-c3cc(C(=O)N4CCN(CCCOc5ccc6nccc(C(=O)NCC(=O)N7CC(F)(F)C[C@H]7C#N)c6c5)CC4)ccc3C(=O)[O-])c3ccc(=[N+](C)C)cc-3oc2c1,flow cytometry,"mouse B16-F10 tumour, tumour","intravenous, dose not given, 1 h",,probe signal in stromal cells,~80%
Cc1nc(C)c(C=[N+]([O-])C(C)(C)C)nc1C,"Western blot, refers to: Nrf2","mouse, MPTP model, substantia nigra nuclei",90 mg/kg,,protein level increase,41.2%
COC1CCC(N(C(=O)C2CCC(C)CC2)c2cc(C3=CCCCC3)sc2C(=O)O)CC1 (stereo not drawn),,Arabidopsis thaliana spy-4 seedlings,"30 µM, sugar-containing medium, darkness",,hypocotyl length,no effect
O=c1[nH]c(N2CCC3(CC2)CN(CCO)c2cc(F)cc(F)c23)nc2c1CCCC2,qRT-PCR,"NOD-SCID mouse xenograft, xenograft tumour","intraperitoneal, dose not given, 4 h after last dose",,MYC mRNA level,decreased
COc1c2c(cc3oc(COC4OC(CO)C(O)C(O)C4O)cc(=O)c13)OC(C(C)(C)O)C2 (stereo not drawn),analgesic effect,"Kunming mouse, female","oral, 2 mg/kg, 0 h, 55 °C, before dosing, 30 s cut-off",,hot plate latency,8.43 ± 0.62 s
C[C@H](NC(=O)CCCCCNC(=S)Nc1ccc2c(c1)C(=O)OC21c2ccc(O)cc2Oc2cc(O)ccc21)C(=O)N[C@@H](C)C(=O)N1CCC[C@H]1C(=O)N[C@@H](CCC(=O)O)C(=O)N1CCC[C@H]1C(=O)N[C@@H](CCC(=O)O)C(=O)N[C@H](C(=O)NCC(=O)N[C@@H](CCC(=O)O)C(=O)O)[C@@H](C)O,Western blot,"mouse, liver ischaemia-reperfusion, liver","intravenous, 15 mg/kg",,Nrf2 protein level,increased
C=C(c1cc(F)c(C(=O)O)c(F)c1)c1cc2c(cc1C)C(C)(C)CCC2(C)C,"RNA sequencing, refers to: Rbp1","rat, brain","dose not given, 24 h",baseline: vehicle,log2 fold change,0.62
Cc1ncc2c(n1)CN(C(=O)Nc1nc(-c3cccs3)ccc1N)C2,immunofluorescence,"wild type mouse, hippocampal CA1","dose not given, 14 days, daily",,SV2A and PSD95 puncta,no effect
CCCCCCCCCC(=O)N[C@@H](Cc1c[nH]c2ccccc12)C(=O)N[C@H](CC(N)=O)C(=O)N[C@@H](CC(=O)O)C(=O)N[C@@H]1C(=O)NCC(=O)N[C@@H](CCCN)C(=O)N[C@@H](CC(=O)O)C(=O)N[C@H](C)C(=O)N[C@@H](CC(=O)O)C(=O)NCC(=O)N[C@H](CO)C(=O)N[C@@H]([C@H](C)CC(=O)O)C(=O)N[C@@H](CC(=O)c2ccccc2N)C(=O)O[C@@H]1C,,mammalian-mimic liposomes,"50 µg/mL, 100 min",,calcein leakage,5.2%
COc1c2c(cc3oc(CO)cc(=O)c13)O[C@H](C(C)(C)O)C2,analgesia,mouse,"oral, 2 mg/kg, 1.5 h",,hot plate latency,15.5 ± 2.24 s
C[C@@H](O)[C@@H]1NC(=O)[C@H](CCCCN)NC(=O)[C@@H](Cc2ccc(NC(N)=O)cc2)NC(=O)[C@H](Cc2ccc(NC(=O)[C@@H]3CC(=O)NC(=O)N3)cc2)NC(=O)[C@H](NC(=O)[C@H](Cc2ccc(Cl)cc2)NC(=O)CN2CCN(CC(=O)O)CCN(CC(=O)O)CCN(CC(=O)O)CC2)CSSC[C@@H](C(=O)N[C@H](Cc2ccc(O)cc2)C(N)=O)NC1=O [gallium-68 labelled],PET/CT,"human neuroendocrine tumour patients, lung lesions",60 min,,SUVmean,7.4
C=C(c1ccc(C(=O)O)c(F)c1)c1cc2c(cc1C)C(C)(C)C=CC2(C)C,"RNA sequencing, refers to: Ccl6 mRNA","rat, brain","dose not given, 24 h, single dose",baseline: vehicle,log2 fold change,-1.68
CCCCC1NC(=O)c2ccccc21 (racemic),Longa method,Sprague Dawley rat pMCAO model,"intraperitoneal, 50 mg/kg, 2 h after occlusion onset",baseline: model group,neurological deficit score,decreased
CN(C)C(=O)c1ccnc(N2Cc3cn(Cc4ccc(F)cc4F)nc3C2)n1,EAE clinical score,mouse EAE model,"oral, 5 mg/kg daily from day 11, 264 h, unit not given",baseline: vehicle,effect size d,-2.08
CCCCCCCCCCCCCCCC(=O)NCCCC[C@H](N)C(=O)N[C@@H](CC(=O)O)C(=O)N[C@H](C(=O)N[C@@H](Cc1c[nH]cn1)C(=O)N[C@@H](Cc1ccccc1)C(=O)N[C@@H](CCCNC(=N)N)C(=O)N[C@H](C(=O)N[C@@H](Cc1ccccc1)C(=O)N[C@@H](CCCNC(=N)N)C(=O)N[C@@H](CO)C(=O)N[C@@H](Cc1c[nH]cn1)C(=O)N[C@@H](CO)C(=O)N[C@@H](CC(=O)O)C(=O)N[C@@H](Cc1ccc(O)cc1)C(=O)N[C@@H](CCCNC(=N)N)C(=O)N[C@@H](CCCNC(=N)N)C(=O)N[C@H](C(=O)O)[C@@H](C)CC)[C@@H](C)O)[C@@H](C)O,,"C57BL/6J mouse, MCD diet","intraperitoneal, 1.2 nmol/g, 3 weeks, 3 times weekly",,serum total cholesterol,78.6 ± 12.7 mg/dL
C[N+]1=C(C=CC=CC=C2N(CCCCCC(=O)NCCCC[C@H](NC(=O)[C@@H](CCC(=O)O)NC(=O)[C@@H](CCC(=O)O)NC(=O)[C@@H](CCC(=O)O)NC(=O)CCCCCNC(=O)C3CCC(CNC(=O)CC[C@H](NC(=O)N[C@@H](CCC(=O)O)C(=O)O)C(=O)O)CC3)C(N)=O)c3ccc4ccccc4c3C2(C)C)C(C)(C)c2c1ccc1ccccc21 (stereo partly drawn),fluorescence molecular tomography,"mouse, PC3pip tumour xenograft, PC3pip tumour","iv, 1 nmol, 24 h",,probe amount in tumour,50.8 ± 2.6 pmol
COc1ccc2nc(C)ccc2c1Nc1sn(C)c(=O)c1C#N,,"mouse, paclitaxel neuropathy model",dose not given,,tail nerve conduction velocity,no effect
CCCCCCCOC(=O)Cc1c(C)n(C(=O)c2ccc(Cl)cc2)c2ccc(OC)cc12,hot plate test,BALB/c mice,"100 mg/kg, 120 min",,latency of nociceptive response,16.7 ± 1.2 s
CC(=O)c1cnc(N)nc1N1CC[C@H]1c1nn2ccc(Cl)c2c(=O)n1-c1ccccc1,,"rat, plasma","oral, 10 mg/kg, 8 h, with: Con-A 30 mg/kg iv",,IFNγ level,46 ± 4 ng/mL
CC[C@H]1[C@@H](O)[C@@H]2[C@H](CC[C@]3(C)[C@@H]([C@H](C)CCOS(=O)(=O)[O-])CC[C@@H]23)[C@@]2(C)CC[C@@H](O)C[C@@H]12.[Na+],,"ob/ob NASH mice, liver","oral, 10 mg/kg once daily, 8 wk",,liver triglycerides,149 ± 14 mg/g tissue
COc1ccc(-c2nnc(COc3cc(-c4nc5ccccc5s4)ccc3OC)o2)cc1OC,seizure protection,"albino mouse, scPTZ-induced seizure","ip, 0.5 h",,minimal effective dose,30 mg/kg
CC(=O)C1=C(C)NC(=O)NC1c1ccc(F)cc1 (stereo not drawn),DPPH radical scavenging,,,baseline: gallic acid,antioxidant potency ratio,~2 fold
O=C([O-])CN1CCN(CC(=O)[O-])CCN(CC(=O)NC[C@H]2CC[C@H](C(=O)N[C@H](Cc3cnc4ccccc4c3)C(=O)NCCCC[C@H](NC(=O)N[C@@H](CCC(=O)O)C(=O)O)C(=O)O)CC2)CCN(CC(=O)[O-])CC1.[64Cu+2],refers to: prostate cancer,"prostate cancer patients, biopsy cores",cut-off 66 CPM,,specificity,93.7%

# Repeated from above:
Compound,test,system,setting,how to read,measurement,result
CC(=O)C1=C(C)NC(=O)NC1c1ccc(F)cc1 (stereo not drawn),DPPH radical scavenging,,,baseline: gallic acid,antioxidant potency ratio,~2 fold
COC1CCC(N(C(=O)C2CCC(C)CC2)c2cc(C3=CCCCC3)sc2C(=O)O)CC1 (stereo not drawn),,Arabidopsis thaliana spy-4 seedlings,"30 µM, sugar-containing medium, darkness",,hypocotyl length,no effect
CC(C)C[C@@H]1NC(=O)[C@H](C(C)C)NC(=O)[C@H](CC(N)=O)NC(=O)[C@H](CO)NC(=O)[C@H](CO)NC(=O)[C@H](CC(=O)O)NC(=O)[C@H](CC(=O)O)NC(=O)[C@H](Cc2ccccc2)NC(=O)[C@H](Cc2ccc(O)cc2)NC(=O)[C@@H](N)CSSC[C@@H](C(=O)N[C@@H](CCCCN)C(=O)N[C@@H](CCCCN)C(=O)N[C@@H](Cc2ccc(O)cc2)C(=O)N[C@@H](CCCNC(=N)N)C(=O)N[C@@H](CO)C(=O)O)NC1=O,,"CD-1 mouse, nephrotoxic serum nephritis, blood","dose not given, dosed from week 6",,blood urea nitrogen,decreased
O=C([O-])CN1CCN(CC(=O)[O-])CCN(CC(=O)NC[C@H]2CC[C@H](C(=O)N[C@H](Cc3cnc4ccccc4c3)C(=O)NCCCC[C@H](NC(=O)N[C@@H](CCC(=O)O)C(=O)O)C(=O)O)CC2)CCN(CC(=O)[O-])CC1.[64Cu+2],refers to: prostate cancer,"prostate cancer patients, biopsy cores",cut-off 66 CPM,,specificity,93.7%
